Experimental data pooled from the literature.
Each line is one published result; not all experiments were run side by side. ± gives the spread as reported.
Cell line: A549

SMILES	read-out	technique	time	notes	IC50
Cc1c(C)c(C)[c-](C)c1C.OCc1ccnc(-c2[c-]cccc2)c1.[Cl-].[Ir+3]	–	SRB	24 h	72 h recovery	89 ± 1 µM
Cc1ccc(C(C)C)cc1.[Cl-].[Cl-].[Ru+2].c1ccc(P(=Nc2cccc3cccnc23)(c2ccccc2)c2ccccc2)cc1	cell growth or viability	MTT	24 h	–	43.3 µM
COc1cc(OC)c(C(C)=O)c(OC)c1	cell growth or viability	MTT	48 h	–	70.3 µM
CC(C)c1cccc(C(C)C)c1[N+]#[C][Pt-2]([Cl])([Cl])[C]#[N+]c1c(C(C)C)cccc1C(C)C	cell growth or viability	–	–	–	> 100 µM
COc1ccc(-c2nnc(-c3ccccn3)[nH]2)cc1OC.COc1ccc(-c2nnc(-c3ccccn3)[nH]2)cc1OC.[Cu+2].[O-][Cl+3]([O-])([O-])[O-].[O-][Cl+3]([O-])([O-])[O-]	cell growth or viability	MTT	24 h	–	78.6 µM
N=C(N)Nc1nc2ccccc2[nH]1	cell growth or viability	MTT	24 h	–	> 200 µM
Cc1ccc(C(=O)NCCNC(=O)[C@@]2(C)[C@H](O)CC[C@@]3(C)[C@H]2CC[C@]2(C)[C@@H]3C(=O)C=C3[C@@H]4[C@@H](C)[C@H](C)CC[C@]4(C)CC[C@]32C)cc1	cell growth or viability	MTT	48 h	–	20.4 µM
CC(C)c1cccc(C(C)C)c1[N+]#[C][Pd-]([Cl])([Cl])=[C](Nc1ccc(CN[C](NC(C)(C)C)=[Au][Cl])cc1)Nc1c(C(C)C)cccc1C(C)C	cell growth or viability	–	–	–	> 100 µM
CCN1CCC2(CC1)C/C(=N\NC(=O)Nc1ccc([N+](=O)[O-])cc1)c1ccccc1O2	cell growth or viability	MTT	48 h	–	21.7 µM
COc1cc2ncnc(Nc3ccc(F)c(Cl)c3)c2cc1NC(=O)N/N=C/c1ccc[nH]1	cell growth or viability	MTT	72 h	–	8.41 µM
CC(C)c1cccc(C(C)C)c1N=[C](NCc1cccc(N)c1)[AuH][Cl]	cell growth or viability	–	–	–	> 100 µM
N#Cc1cccc(-c2ccc(=O)n(Cc3cccc(-c4ncc(OCC5CCN(CCCCCCC(=O)Nc6cccc7c6C(=O)N(C6CCC(=O)NC6=O)C7=O)CC5)cn4)c3)n2)c1 (stereo not shown)	cell growth or viability	CCK-8	72 h	–	1.03 µM
COCC12CCC(OC)C34C5CC6(O)C(O)C5C(O)(C(O)C6OC)C(CC13)C4N(C)C2 (stereo not shown)	cell growth or viability	MTT	–	–	18.2 µM
Cc1ccc(C(C)C)cc1.Cc1ncc(CO)c(C=NNC2=Nc3ccccc3-c3[nH]c4ccc(Br)cc4c3C2)c1O.[Cl-].[Cl][Ru+]	cell growth or viability	MTT	96 h	–	6 µM
COc1ccc(/C=C2\SC(N3N=C(c4ccc(C)cc4)CC3c3ccc(F)cc3)=NC2=O)cc1 (stereo not shown)	cell growth or viability	MTT	–	–	11.7 µM
CN1CCCC1CCO/N=C1/C=C2CCC3C(CC[C@]4(C)/C(=C/c5ccccn5)CCC34)[C@@]2(C)CC1 (stereo partly shown)	cell growth or viability	MTT	72 h	–	> 100 µM
O=S([O-])c1ccccc1N=Cc1ccccc1[O-].[Cu+2].c1c[nH]cn1	cell viability	MTT	24 h	–	13 ± 0.95 µM
CC(=O)[O][Pt]([Cl])([Cl])[O]C(=O)CCCc1ccccc1.N.N	cell growth or viability	–	–	–	7.16 µM
CCCCN(CCCC)CC(O)COc1c2ccoc2c(OC)c2oc(CC)cc(=O)c12 (stereo not shown)	cell growth or viability	MTT	72 h	–	26.3 µM
COc1c(C)c(OS(=O)(=O)c2ccccc2)c(C)c2c1C(=O)CC(c1ccccc1)O2 (stereo not shown)	cell growth or viability	SRB	72 h	–	37.9 µM
CC(C)=CCn1c2ccc(Br)c(=O)c-2nc2ccccc21	cell growth or viability	CCK-8	72 h	–	0.33 µM
O=C(/C=C/c1ccc2c(c1)C(=O)N(CCCc1ccccc1)CC2)NO	cell growth	SRB	72 h	–	2.28 ± 1 µM
Cc1nccn1-c1nc(NN=Cc2c[nH]c3ccccc23)nc(Nc2ccc(Br)cc2)n1	cell growth or viability	SRB	5 days	–	0.6 µM
O=C(CN1C(=O)NC(c2ccccc2)(c2ccccc2)C1=O)N/N=C/c1ccccc1	cell growth or viability	resazurin	24 h	–	350 µM
CC(=O)OC[C@]1(C)CCC[C@]2(C)[C@@H]1CC[C@@]13C[C@@H](C[C@H](O)[C@H]12)[C@H](C)C3=O	cell growth or viability	MTT	–	–	> 20 µM
Cc1ccc(C(=O)/C=C/c2cn(CC(=O)Nc3nc(-c4ccccc4)cs3)nn2)cc1	cell growth or viability	MTT	72 h	–	0.151 µM
Nc1nc(-c2ccc(-n3cccc3)cc2)cc(-c2ccc(Cl)cc2Cl)n1	cell viability	MTT	24 h	–	49.4 µM
COc1cc2c(cc1O)[C@]1(O)C(=O)c3c(O)cc4c(c3O[C@@H]1CO2)C=CC(C)(C)O4	cell growth or viability	MTT	–	–	81 µM

SMILES	read-out	technique	time	notes	IC50
CC(=O)O[C@H]1CC[C@]2(C)[C@H]3CC=C4[C@@H]5CC(C)(C)CC[C@]5(CO)CC[C@@]4(C)[C@]3(C)CC[C@H]2C1(C)C	cell growth or viability	SRB	–	–	> 100 µM
CCCCSc1nc(N)c2c(F)c(F)c(C#N)c(F)c2n1	cell growth or viability	MTT	96 h	–	70.5 µM
CNC(=O)c1c(C)oc2cc(Oc3ncnc4cc(OC)c(OCCCCCCC(=O)NO)cc34)ccc12	cell growth or viability	CCK-8	48 h	–	4.59 µM
COc1c(O)cc2oc3cc(O)c4c(c3c(=O)c2c1CCC(C)(C)O)OC(C)(C)CC4	cell growth or viability	–	48 h	–	> 40 µM
CCCCCCCCSc1nc(N)c2c(F)c(C#N)c(F)c(Cl)c2n1	cell growth or viability	MTT	96 h	–	> 100 µM
N#Cc1cccc(-c2ccc(=O)n(Cc3cccc(-c4ncc(OCC5CCN(CCCCC(=O)Nc6cccc7c6C(=O)N(C6CCC(=O)NC6=O)C7=O)CC5)cn4)c3)n2)c1 (stereo not shown)	cell growth or viability	CCK-8	72 h	–	0.413 µM
Cc1cc(C=O)cc(C)c1Oc1cc(Nc2ccc(C#N)cn2)nc2cnccc12	–	–	48 h	–	55.5 ± 5.5 µM
COc1ccc(C2C([N+](=O)[O-])C(Cc3ccc(O)cc3)NC23C(=O)c2cccc4cccc3c24)cc1 (stereo not shown)	cell growth or viability	MTT	24 h	–	96.5 µM
COc1ccc(/C=C/C2=[N+]3C(=C(CO)c4c(C)cc(/C=C/c5ccc(OC)cc5)n4[B-]3(C)C)C(C)=C2)cc1	cell growth or viability	resazurin	–	dark	> 100 µM
COc1ccc(C([O-])=CC(=O)c2ccc(C(C)(C)C)cc2)cc1.[Cl-].[Ru+2].c1ccc(-c2cccc(-c3ccccn3)n2)nc1	cell viability	resazurin	72 h	dark	inactive
CC(=O)OC[C@H]1O[C@@H](N2C(=O)/C(=C/c3ccc4c(c3)OCCO4)SC2=S)[C@H](OC(C)=O)[C@@H](OC(C)=O)[C@@H]1OC(C)=O	cell growth or viability	MTT	48 h	–	17.1 µM
N[C@@H](CNC(=O)c1ccc2[nH]c(C(=O)c3ccc(O)cc3)nc2c1)C(=O)O	cell growth or viability	ATP luminescence	72 h	–	> 300 µM
C=CC(=O)Nc1cc(Nc2nccc(-c3c(-c4cccc(OC)c4)n(C)c4ccccc34)n2)c(OC)cc1N(C)CCN(C)C	cell growth or viability	MTT	72 h	–	0.301 µM
Cc1ccc2nc(NC(=O)Cn3cc(COc4ccc(/C=N/Nc5cc([N+](=O)[O-])cc([N+](=O)[O-])c5)cc4)nn3)sc2c1	cell growth or viability	MTT	48 h	–	65 µM
CCCCCC(=O)NCCNC(=O)[C@]1(C)[C@@H]2CC[C@]3(C)[C@H](C(=O)C=C4[C@@H]5[C@@H](C)[C@H](C)CC[C@]5(C)CC[C@]43C)[C@@]2(C)CC[C@H]1OC(C)=O	cell growth or viability	MTT	48 h	–	19 µM
Cc1cc(C)c([N+]#[C][Pt-]([Cl])([Cl])=[C](Nc2cccc(CN[C](NC(C)(C)C)=[Au][Cl])c2)Nc2c(C)cc(C)cc2C)c(C)c1	cell growth or viability	–	–	–	> 100 µM
COc1ccccc1C(=O)c1[nH]c(Cl)c(Cl)c1-n1c(C(=O)c2ccccc2OC)cc(Cl)c1Cl	cell growth or viability	resazurin	24 h	–	37 µg/mL
O=C(CN1C(=O)S/C(=C\c2ccccc2Br)C1=O)Nc1ccc(C(=O)Nc2ccc(F)cc2)cc1	cell growth or viability	MTT	–	–	19.8 µM
O=Cc1c2cc(Cl)ccc2n2c1c(-c1ccccc1)c(SC(F)(F)F)c1ccccc12	cell growth or viability	MTT	72 h	–	50.1 µM
CCn1c[n+](CC)c2ccccc21	cell growth or viability	crystal violet	72 h	–	> 50 µM
[Cl-].[Cl-].[Ru+2].c1ccc(-c2cc(-c3ccccn3)nc(-c3ccccn3)c2)cc1.c1ccc(-c2ccnc3c2ccc2c(-c4ccccc4)ccnc23)cc1	cell growth or viability	–	72 h	dark	0.48 µM
O=C1c2ccc3c4cccc5cccc(c6ccc(c2c36)C(=O)N1CCN1CCCCC1)c54	cell growth or viability	SRB	72 h	–	38.4 µM
CC(=O)[O-].O.O.O.O.[Mn+2].[O-]c1ccc(Br)cc1C=NCCN1CCOCC1	cell viability	MTT	72 h	–	26.2 µg/mL
C[N+]1(C)CC[NH2+][Pt-2]1([OH])([Cl])([Cl])[O]C(=O)CCC(=O)OCCOC(=O)CCC(=O)[O][Pt-2]1([OH])([Cl])([Cl])[NH2+]CC[N+]1(C)C	cell growth or viability	MTT	96 h	–	356 µM
CC(=O)O[C@@H]1CC[C@@]2(C)[C@@H](CC[C@]3(C)[C@@H]2C(=O)C=C2[C@@H]4[C@@H](C)[C@H](C)CC[C@]4(C)CC[C@]23C)[C@@]1(C)C(=O)NCCNC(=O)CCCCCCCBr	cell growth or viability	MTT	48 h	–	16.9 µM
COc1c(O)cc2oc3cc4c(c(O)c3c(=O)c2c1CCC(C)(C)O)CCC(C)(C)O4	cell growth or viability	–	48 h	–	> 40 µM
S=c1n(-c2ccccc2)c2c3ccccc3nc3[n+]2[n]1[Ir-3]12([S]3)([c]3ccccc3-c3cccc[n+]31)[c]1ccccc1-c1cccc[n+]12	cell viability	MTT	–	irradiation 450 nm, 15.5 mW/cm^2, 15 min	0.027 ± 0.003 µM

Excerpt of the above:
SMILES	read-out	technique	time	notes	IC50
COc1cc2ncnc(Nc3ccc(F)c(Cl)c3)c2cc1NC(=O)N/N=C/c1ccc[nH]1	cell growth or viability	MTT	72 h	–	8.41 µM
CC(C)c1cccc(C(C)C)c1N=[C](NCc1cccc(N)c1)[AuH][Cl]	cell growth or viability	–	–	–	> 100 µM
N#Cc1cccc(-c2ccc(=O)n(Cc3cccc(-c4ncc(OCC5CCN(CCCCCCC(=O)Nc6cccc7c6C(=O)N(C6CCC(=O)NC6=O)C7=O)CC5)cn4)c3)n2)c1 (stereo not shown)	cell growth or viability	CCK-8	72 h	–	1.03 µM
COCC12CCC(OC)C34C5CC6(O)C(O)C5C(O)(C(O)C6OC)C(CC13)C4N(C)C2 (stereo not shown)	cell growth or viability	MTT	–	–	18.2 µM
Cc1ccc(C(C)C)cc1.Cc1ncc(CO)c(C=NNC2=Nc3ccccc3-c3[nH]c4ccc(Br)cc4c3C2)c1O.[Cl-].[Cl][Ru+]	cell growth or viability	MTT	96 h	–	6 µM
COc1ccc(/C=C2\SC(N3N=C(c4ccc(C)cc4)CC3c3ccc(F)cc3)=NC2=O)cc1 (stereo not shown)	cell growth or viability	MTT	–	–	11.7 µM
